Measured values from different studies.
Numbered parts are unrelated; each lists some results of a single study.

Set 1 — method: protein-binding microarray; molecule type: double-stranded DNA, one strand shown; matrix: in vitro; concentration: 940 nM top; setting: 60-bp whole probe; added: salmon DNA 0.4 mg/ml; relative to: random background probes; reading: higher = stronger binding; all sequences stand within: GCCTAGCAC … GTCTTGATTCGCTTGACGCTGCTG
Target: Interferon regulatory factor 5, full length, phosphomimetic (IRF5, Homo sapiens, UniProt Q13568-2, residues 1-514, S451D/S453D/S456D/S462D)
`TCAATTTTTTTTCTAACACTGTGCTAG`: “fitted relative affinity” 1.31 z-score.
`TTAGATTTGAGACTGGATTAGTGCTAG` — result for “fitted relative affinity”: -0.277 z-score.
For `GACGGTCTCCTACTGCAGACGTGCTAG`, “fitted relative affinity” read 0.0612 z-score.
For `GACGAACTGGGGTATCGAGATGTGCTA`, “fitted relative affinity” read 0.804 z-score.
For `GACGGTCTCCTTCTCCGGACGTGCTAG`, “fitted relative affinity” read 0.934 z-score.
`GACGGTATCGACGATCGGGACGTGCTA` — result for “fitted relative affinity”: 3.88 z-score.
`GACGAACTGAGTCTCGAGAGGTGCTAG` — result for “fitted relative affinity”: 0.411 z-score.
`GACGAACTAGGGACTGGAGACGTGCTA`: “fitted relative affinity” -0.725 z-score.

Set 2 — method: RNA Bind-n-Seq; molecule type: RNA; matrix: in vitro; concentration: 200 nM; setting: whole 134-nt RNA, ends assumed; added: 150 mM KCl; relative to: input library; reading: higher = stronger binding
Target: Fragile X messenger ribonucleoprotein 1, C-terminal low-complexity region (Fmr1, Mus musculus, UniProt P35922)
`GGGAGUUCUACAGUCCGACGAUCCAAGUCCUGUGCUACACAUCGUAUGUACCGAAUCGGUGGUUUUUGGAAAAAAAGGAAAGUAUUAUGUUACGCCGUUCGGAUCUGCACUUCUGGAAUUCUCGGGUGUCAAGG` gave a log2 enrichment of -0.53.
With `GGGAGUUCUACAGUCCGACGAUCUGGGAGGUGGAUUUUGUUUAUUUUUUUAGCUCAUUUCCAGGGGUUGGAAUUUUUUUUUAAUAUGUGUCAUGAAUAAAGUUGUUUUUGAAAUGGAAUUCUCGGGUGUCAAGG` the log2 enrichment was -0.0441.
`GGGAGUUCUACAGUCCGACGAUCGCAGGAAGUAAAAACAAAUGGAAAUGCUUCGGAUAGUGGCAGGGGUGGGGGUUGCUAAGGAAAGUGUGGGAUGGGAGUGGGUAAAGAGUUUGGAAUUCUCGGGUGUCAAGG` gave a log2 enrichment of 0.202.
`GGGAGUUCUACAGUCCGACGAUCCACAGACAACACGCAGCCACACAGACACAGAGGGAAGGGGUUGGGAUGGGGACAGGGUGCACAGCAGGGCGGGGUAGGACCCCAGCCCCUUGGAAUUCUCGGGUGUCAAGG` has a log2 enrichment of 1.3.
For `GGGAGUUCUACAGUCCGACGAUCCAAGUCCUGUGCUACACAUCGUAUGUACCGAAUCGGGAGGGAAAAAGGGAAAGGGAAAGUAUUAUGUUACGCCGUUCGGAUCUGCACUUCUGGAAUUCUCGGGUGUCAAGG`, the log2 enrichment was 0.621.
The log2 enrichment of `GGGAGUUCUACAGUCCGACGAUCGCAGGAAGUAAAAAUAAAUGGAAAUGCUUCGGAUAGUGGCAGGGGUGGGGGUUGCUAAGGAAAGGGUGGGAUGGGAGUGGGUAAAGAGUUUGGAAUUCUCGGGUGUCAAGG` is reported as 0.191.

Set 3 — observed: enzyme activity; action: inhibitor; concentration: 20 µM
Target: Replicase polyprotein 1ab, polymerase (rep, Severe acute respiratory syndrome coronavirus 2, UniProt P0DTD1)
`CCn1c2ccccc2c2cc(CNC)ccc21` gave an inhibition of -7.41%.
`Cc1ccccc1C(=O)Nc1ccc(C(=O)N2CCCC(O)c3cc(Cl)ccc32)c(C)c1` (centres unmarked) has an inhibition of 0.7%.
With `Brc1c(NC2=NCCN2)ccc2nccnc12` the inhibition was 0.81%.
`Fc1cc(-c2cccc3ncc(-c4cnn(C5CCNCC5)c4)nc23)cc(F)c1CN1CCOCC1` gave an inhibition of 12.1%.
The inhibition of `COc1ccc(C2=N[C@@H](c3ccc(Cl)cc3)[C@@H](c3ccc(Cl)cc3)N2C(=O)N2CCNC(=O)C2)c(OC(C)C)c1` is reported as 1.27%.
`O=c1[nH]cnc2c([C@@H]3N[C@H](CO)[C@@H](O)[C@H]3O)c[nH]c12` has an inhibition of -5.09%.
`CCc1ccccc1OC[C@@H](O)CN[C@H]1CCCc2ccccc21` gave an inhibition of 0.22%.
With `NC(=O)C1CCCc2c1[nH]c1ccc(Cl)cc21` (centres unmarked) the inhibition was -3.21%.
With `Nc1nc(OCc2ccccc2)c2nc[nH]c2n1` the inhibition was 1.64%.
For `C[C@@H](N)c1ccc(C(=O)Nc2ccnc3[nH]ccc23)cc1`, the inhibition was 0.01%.
`CC(N)Cc1ccc(O)cc1` (centres unmarked) gave an inhibition of -0.97%.
`CCCC(=O)C1(c2ccccc2)CCN(C(=O)[C@@H](Cc2ccc(OC)cc2)NC(=O)[C@@H](N)Cc2cncn2C)CC1` has an inhibition of 0.97%.
`CC(C)(C)NCC(O)CSc1nc(-c2ccc(C(N)=O)s2)cs1` (centres unmarked) has an inhibition of 16.9%.
For `COc1ccc(C(=O)C2CCN(CC(=O)N(Cc3nc4c(c(=O)[nH]3)COCC4)CC3CC3)CC2)cc1`, the inhibition was 1.23%.
With `O=Nc1c(-c2c(O)[nH]c3ccccc23)[nH]c2ccccc12` the inhibition was 15.7%.
With `O=C(O)C1CN(Cc2ccc(-c3nc4cc(Cc5ccccc5F)ccc4s3)c(F)c2)C1` the inhibition was -7.04%.
With `CO/N=C1/C[C@@H](C(=O)NC[C@@H](O)c2ccccc2)N(C(=O)c2ccc(-c3ccccc3C)cc2)C1` the inhibition was 0.64%.
`O=S(=O)(O)c1ccc2[nH]c(-c3ccccc3)nc2c1` has an inhibition of -0.91%.
For `NC(=O)NO`, the inhibition was 26.8%.
`Nc1nonc1C(=Nc1ccc(F)c(Cl)c1)NO` gave an inhibition of 0.22%.
`Nc1ccc(S(=O)(=O)Nc2nccs2)cc1` has an inhibition of 28.2%.
`CC(=O)Oc1ccc(C(c2ccc(OC(C)=O)cc2)c2ccccn2)cc1` has an inhibition of -5.16%.
The inhibition of `CC1(C)O[C@@H]2[C@@H](CO[C@@]3(COS(N)(=O)=O)OC(C)(C)O[C@@H]23)O1` is reported as -0.25%.
For `C#C[C@]1(OC(C)=O)CC[C@H]2[C@@H]3CCC4=CC(=O)CC[C@@H]4[C@H]3CC[C@@]21C`, the inhibition was 9.81%.
The inhibition of `CC[C@@]1(O)C(=O)OCc2c1cc1n(c2=O)Cc2c-1nc1cc(F)c(C)c3c1c2[C@@H](N)CC3` is reported as 9.65%.

Set 4 — method: protein binding microarray; molecule type: double-stranded DNA, one strand shown; matrix: in vitro; concentration: not given; relative to: not given; reading: higher = stronger binding
Target: Histone acetyltransferase KAT6A, both winged helices, GST fusion (KAT6A, Homo sapiens, UniProt Q92794, residues 1-181)
Setting: 8-mer, flanks averaged, mean of 2 arrays, mostly near background
Target sequence (chain): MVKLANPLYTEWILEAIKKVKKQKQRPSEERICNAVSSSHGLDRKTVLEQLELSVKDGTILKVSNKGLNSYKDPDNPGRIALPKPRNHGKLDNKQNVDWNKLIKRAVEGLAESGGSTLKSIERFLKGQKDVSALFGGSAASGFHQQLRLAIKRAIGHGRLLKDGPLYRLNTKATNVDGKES
The E-score of `AGAGGCGG` is reported as 0.156.
`GGTGTAAC` has an E-score of 0.185.
With `ATTAATGG` the E-score was -0.0609.
`ATCGGTGC` gave an E-score of 0.0103.
With `CCCAAGCA` the E-score was -0.0567.
`AAAACTTG` gave an E-score of -0.125.
`TACAGAAA` gave an E-score of -0.0745.
`AACGCTCA` gave an E-score of 0.0723.

Set 5 — observed: enzyme activity; action: inhibitor; setting: without DTT
Target: Replicase polyprotein 1ab, main protease (rep, Severe acute respiratory syndrome coronavirus 2, UniProt P0DTD1)
With `O=C(O)c1ccc(SSc2ccc(C(=O)O)cn2)nc1` the IC50 was 0.24 µM.
For `Cc1c(OCC(F)(F)F)ccnc1C[S+]([O-])c1nc2ccccc2[nH]1` (centres unmarked), the IC50 was 7.3 µM.
For `CC(=O)[O][Pt]([NH2])([Cl])([Cl])([NH]C1CCCCC1)[O]C(C)=O`, the IC50 was 5.7 µM.

A few entries again (set 2):
`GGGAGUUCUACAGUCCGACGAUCCAAGUCCUGUGCUACACAUCGUAUGUACCGAAUCGGUGGUUUUUGGAAAAAAAGGAAAGUAUUAUGUUACGCCGUUCGGAUCUGCACUUCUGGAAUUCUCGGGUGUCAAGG` gave a log2 enrichment of -0.53.
With `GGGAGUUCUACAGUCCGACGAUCUGGGAGGUGGAUUUUGUUUAUUUUUUUAGCUCAUUUCCAGGGGUUGGAAUUUUUUUUUAAUAUGUGUCAUGAAUAAAGUUGUUUUUGAAAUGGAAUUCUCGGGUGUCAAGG` the log2 enrichment was -0.0441.
`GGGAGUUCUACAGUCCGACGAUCGCAGGAAGUAAAAACAAAUGGAAAUGCUUCGGAUAGUGGCAGGGGUGGGGGUUGCUAAGGAAAGUGUGGGAUGGGAGUGGGUAAAGAGUUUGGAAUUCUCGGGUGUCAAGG` gave a log2 enrichment of 0.202.
`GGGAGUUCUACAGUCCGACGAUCCACAGACAACACGCAGCCACACAGACACAGAGGGAAGGGGUUGGGAUGGGGACAGGGUGCACAGCAGGGCGGGGUAGGACCCCAGCCCCUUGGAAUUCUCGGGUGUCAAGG` has a log2 enrichment of 1.3.
For `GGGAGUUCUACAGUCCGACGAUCCAAGUCCUGUGCUACACAUCGUAUGUACCGAAUCGGGAGGGAAAAAGGGAAAGGGAAAGUAUUAUGUUACGCCGUUCGGAUCUGCACUUCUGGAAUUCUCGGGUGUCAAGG`, the log2 enrichment was 0.621.
The log2 enrichment of `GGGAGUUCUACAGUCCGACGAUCGCAGGAAGUAAAAAUAAAUGGAAAUGCUUCGGAUAGUGGCAGGGGUGGGGGUUGCUAAGGAAAGGGUGGGAUGGGAGUGGGUAAAGAGUUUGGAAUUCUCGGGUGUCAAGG` is reported as 0.191.
